Results gathered from unrelated publications.
Compare with care: the assays were run in different laboratories. Values joined by “and” are separate records of one study, mostly repeats; a detail may differ. ± gives the spread as reported.

SMILES | assay | test system | conditions | half-life
Nc1nc2cnc(C(=O)N3CCOC[C@@H]3c3ccc(C(F)(F)F)cc3)cc2c2c1COC2 |  | rat | 2 mg/kg | 0.7 h
O=C(Nc1ccc(OC(F)(F)F)cc1)NC1CCN(C(=O)C2CC2)CC1 |  | Sprague-Dawley rat, male, whole blood | oral, 0.1 mg/kg | 6.8 h
O=C(NS(=O)(=O)c1cccs1)c1cc2ccccc2n1Cc1ccc(Br)c2ccccc12 |  | Sprague-Dawley rat, male, plasma | oral, 20 mg/kg | 1.48 h
COC(=O)[C@@]1(C(C)C)C=C(C(=O)Nc2cccc(C(=O)Nc3ccc(Nc4nccc(-c5cccnc5)n4)c(C)c3)c2)C(=O)CC1 |  | rat, blood plasma | 10 µM | 4.79 h
Cl.NCc1ccc2c(c1)CN(C1CCC(=O)NC1=O)C2=O (stereo not shown) |  | male Sprague-Dawley rat, whole blood |  | > 3 h
Cc1nc2cccc(OCC(C)(C)C(=O)NC(C)C)c2c(N)c1C(=O)O.O=P(O)(O)O |  | male Sprague-Dawley rat, plasma | oral, 30 mg/kg | 1.34 h
CC[C@H](C)[C@H](NC(=O)[C@H](Cc1ccc(O)cc1)NC(=O)[C@@H](NC(=O)[C@H](CCCNC(=N)N)NC(=O)[C@@H](N)CC(=O)O)C(C)C)C(=O)N[C@@H](Cc1c[nH]cn1)C(=O)N1CCC[C@H]1C(=O)O | LC-MS/MS | Sprague-Dawley rats, both sexes, plasma | subcutaneous, 10 mg/kg/day, day 0 | 0.453 h
OC1(C(F)(F)F)CCN(c2nc(Nc3ccnc(C(F)(F)F)c3)nc(-c3cccc(C(F)(F)F)n3)n2)C1 (stereo not shown) |  | Sprague-Dawley rat, both sexes, plasma | oral gavage, 5 mg/kg | 15 ± 3.08 h
COC(=O)[C@@]1(C)C=C(C(=O)Nc2cccc(C(=O)Nc3ccc(Nc4nccc(-c5cccnc5)n4)c(C)c3)c2)C(=O)CC1 |  | rat Wistar male, plasma | 1 µM | 0.217 h and 0.205 h
C=C(NC(=O)c1csc(-c2nc3c(cc2O)-c2nc(cs2)C(=O)NC(C(C)O)C(=O)NC(=C(C)OC)c2nc(cs2)C(=O)NC2c4nc(cs4)C(=O)NC(COC(=O)c4c5c6c(cccc6n4O)COC(=O)C(OC4CC(C)(O)C(N(C)C)C(C)O4)C2OC5)c2nc-3cs2)n1)C(N)=O (stereo not shown) |  | Sprague-Dawley rat, female, plasma | intravenous infusion, 6 mg/kg, multiple doses, day 1 | 4.21 h
C=C1C[C@]2(C(=O)OC)C=C(C(=O)Nc3cccc(C(=O)Nc4ccc(Nc5nccc(-c6cccnc6)n5)c(C)c4)c3)C(=O)[C@H]1C2 |  | Wistar rat male, blood plasma | 10 µM | 0.0407 h and 0.0721 h
O=C(O)/C=C\c1cc2ccoc2cc1O[C@@H]1O[C@H](CO)[C@@H](O)[C@H](O)[C@H]1O |  | rat, plasma | oral, 217 mg/kg Pc extract, dosed as Pc extract | 2.3 ± 0.7 h
CCC1(CC)CC(=O)N(C2c3cc(C(=O)NC4c5ccccc5CC4O)ccc3OC2(C)COC)C(=N)N1 (stereo not shown) |  | Wistar Han rat male, plasma |  | 5.9 ± 0.7 h
CC[C@H](C)[C@@H](C(=O)N[C@@H](CC(C)C)C(=O)N[C@@H](CO)C(=O)N[C@@H](CO)C(=O)N[C@H](C(=O)N[C@@H](CCC(=O)O)C(=O)N[C@H](C(=O)NCC(=O)N[C@@H](CO)C(=O)N[C@@H](CC(N)=O)C(=O)N[C@H](C(=O)N1C[C@H](O)C[C@H]1C(N)=O)[C@@H](C)O)C(C)C)[C@@H](C)O)N(C)C(=O)[C@H](C)NC(=O)CN(C)C(=O)[C@H](Cc1ccccc1)NC(=O)[C@H](CO)NC(=O)[C@H](CO)NC(=O)[C@H](CCCNC(=N)N)NC(=O)[C@H](CCC(N)=O)NC(=O)[C@H](CC(C)C)NC(=O)[C@H](Cc1ccccc1)NC(=O)[C@H](CCCC(=O)O)NC(=O)[C@H](C)NC(=O)[C@H](CC(C)C)NC(=O)[C@H](CCCNC(=N)N)NC(=O)[C@H](CCC(=O)O)NC(=O)[C@@H](NC(=O)[C@H](C)NC(=O)[C@@H]1CSSC[C@H](NC(=O)[C@H](CCCNC(=N)N)NC(=O)CC[C@H](NC(=O)CCCCCCCCCCCCCCCCCCC(=O)O)C(=O)O)C(=O)NCC(=O)N[C@@H]([C@@H](C)O)C(=O)N[C@@H](C)C(=O)N[C@@H]([C@@H](C)O)C(=O)N1)[C@@H](C)O |  | Sprague-Dawley rat, lean male, plasma | subcutaneous, 30 nmol/kg single dose, vehicle pH 7.0 | > 30 h
COc1ccc([C@@H]2CC(=O)c3c(O)cc(O[C@@H]4O[C@H](CO)[C@@H](O)[C@H](O)[C@H]4O[C@@H]4O[C@@H](C)[C@H](O)[C@@H](O)[C@H]4O)cc3O2)cc1O | LC-MS/MS | Sprague-Dawley rat, male, lean, plasma | intravenous, 4 mg/kg | 13.8 ± 7.26 h
N#Cc1ccnc(N2C(=O)CC[C@H]2C(=O)N(c2cc(F)cc(F)c2)[C@H](C(=O)NC2CC(F)(F)C2)c2ccccc2Cl)c1 (stereo in doubt) |  | Sprague-Dawley rat, plasma |  | 9.9 h

Repeated from above:
SMILES | assay | test system | conditions | half-life
COC(=O)[C@@]1(C)C=C(C(=O)Nc2cccc(C(=O)Nc3ccc(Nc4nccc(-c5cccnc5)n4)c(C)c3)c2)C(=O)CC1 |  | rat Wistar male, plasma | 1 µM | 0.217 h and 0.205 h
C=C(NC(=O)c1csc(-c2nc3c(cc2O)-c2nc(cs2)C(=O)NC(C(C)O)C(=O)NC(=C(C)OC)c2nc(cs2)C(=O)NC2c4nc(cs4)C(=O)NC(COC(=O)c4c5c6c(cccc6n4O)COC(=O)C(OC4CC(C)(O)C(N(C)C)C(C)O4)C2OC5)c2nc-3cs2)n1)C(N)=O (stereo not shown) |  | Sprague-Dawley rat, female, plasma | intravenous infusion, 6 mg/kg, multiple doses, day 1 | 4.21 h
